Measurements of several laboratories.
Lines come from different studies, so protocols differ. Numbers after ± are the reported error.

For Cn1cc(-c2ccc(-c3cncc(Cl)c3N3CCC4(CCNC4=O)CC3)cc2)cn1, “log2 fold change” read 2.76 (COLO 205; gene expression, microarray, refers to: FCGRT mRNA; concentration not given, 2 h; baseline: untreated cells).
Cn1cc(-c2cnc3ccc4ccc(CS(=O)(=O)NCc5ccccn5)cc4c(=O)c3c2)cn1 has an EC50 of over 9.96 µM (HEK293T ATF4-FLuc reporter; ATF4 reporter gene, activator, luciferase reporter).
With CCCCCCCCCCC(=O)O the inhibition was -1.52% (THP-1; pyroptotic LDH release; 2 µM, 40 min, with: LPS then nigericin).
O=c1c(O)c(-c2ccc(O)cc2)oc2cc(O)cc(O)c12 gave an IL-1β level of 8.8 ± 1.1 fold change (coculture, Caco-2, THP-1; ELISA; 50 ng/mL, 8 h, with: LPS, IFNγ, ATP; baseline: untreated control).
For C=C[C@@H]1C[C@]1(NC(=O)[C@@H]1C[C@@H]2CN1C(=O)[C@H](C(C)(C)C)NC(=O)O[C@@H]1C[C@H]1CCCCCc1nc3ccc(OC)cc3nc1O2)C(=O)NS(=O)(=O)C1CC1, the inhibition was 47.9% (THP-1; pyroptotic LDH release; 2 µM, 40 min, with: LPS then nigericin).
For CN(C)CCn1c(C(=O)N2CCN(c3ccccc3Cl)CC2)c(C(c2ccc(O)cc2)c2ccc(O)cc2)c2ccccc21, the EC50 was 5.88 µM (HEK293T ATF4-FLuc reporter; ATF4 reporter gene, activator, luciferase reporter).
Cc1cnc2ccc3c(c2n1)N1CCC(O)N=C1N3C (stereo not drawn) gave a plating efficiency of 51% (BALB/c 3T3; colony formation; 0.5 µM).
For CC(C)C(=O)OCC(=O)[C@@]12O[C@H](C3CCCCC3)O[C@@H]1C[C@H]1[C@@H]3CCC4=CC(=O)C=C[C@]4(C)[C@H]3[C@@H](O)C[C@@]12C, the EC50 was 0.0634 µM (HEK293T ATF4-FLuc reporter; ATF4 reporter gene, activator, luciferase reporter).
With Cn1c([N+](=O)[O-])cnc1COC(N)=O the inhibition was -6.33% (THP-1; pyroptotic LDH release; 2 µM, 40 min, with: LPS then nigericin).
CCCN1CCN(c2ccc3nc(-c4ccc5nc(-c6cc(OC)ccc6OC)[nH]c5c4)[nH]c3c2)CC1 has a growth percent of 93.3% (RXF 393; SRB; 10 µM, 48 h).
For CN(C)C(=O)n1cc(C(=O)c2ccn3c2CS[C@@H]3c2cccnc2)c2ccc(-c3ccc(F)cc3)cc21, the EC50 was 6.4 µM (HEK293T ATF4-FLuc reporter; ATF4 reporter gene, activator, luciferase reporter).
For COc1ncnc(NS(=O)(=O)c2ccc(N)cc2)c1OC, the inhibition was 30.6% (THP-1; pyroptotic LDH release; 2 µM, 40 min, with: LPS then nigericin).
Cl.Cl.NCCNS(=O)(=O)c1ccc(Cl)c2ccncc12: “relative cell number” 120% (SK-OV-3; ATP; 0.01 µM, 4 days, 3D U-bottom low-attachment; baseline: untreated).
Under “mitochondrial membrane potential”, COc1ccc(NC(=S)N/N=C/c2cccc3cc4ccccc4nc23)cc1 is recorded as 1.1 ± 0.26 (HeLa; TMRE flow cytometry; IC25, 48 h, unit not given, with: N-acetylcysteine; baseline: DMSO control).
CCCC(=O)[O-].[Na+] gave a kynurenine level of 115 ± 12.6 % change (Caco-2/THP-1 co-culture; concentration not given, with: LPS 100 ng/mL).
Under “log2 fold change”, Cc1cc(Nc2ncc(Cl)c(Nc3ccccc3S(=O)(=O)C(C)C)n2)c(OC(C)C)cc1C1CCNCC1 is recorded as -3.06 (CLB-BAR; phosphoproteomics LC-MS/MS, refers to: C10orf137 phosphorylation; 200 nM, 60 min; baseline: untreated).
For COc1cnc2cccc(N3CCc4c(cc(Cn5ccnc5C)cc4-c4cn(C)nc4C(F)(F)F)C3=O)c2c1, the EC50 was over 30 µM (OV7; cell growth, inhibitor; 120 h).
O=C(/C=C/C=C/C=C/C1CCCCC1)NC1=C[C@@](O)(/C=C/C=C/C=C/C(=O)NC2=C(O)CCC2=O)[C@@H]2O[C@@H]2C1=O gave a GI50 of 3.54 µM (NCI-H1568; cell growth, CellTiter-Glo; 78 h).
With C[C@@H]1CC[C@H]2C(C)(C)[C@H]3C[C@@]12CC[C@@]3(C)O the inhibition was 28.7% (THP-1; pyroptotic LDH release; 2 µM, 40 min, with: LPS then nigericin).
O=c1[nH]nc(OCCCc2ccc(Cl)cc2)c(NCc2cccnc2)c1Br gave an EC50 of 5 µM (HEK293T ATF4-FLuc reporter; ISR reporter gene, activator; 8 h).
For CC(=O)Nc1cc(Oc2ccc3c(c2)CCN3C(=O)Nc2ccc(CN3CCN(C)CC3)c(C(F)(F)F)c2)ncn1, phosphorylation read “inhibited” (MUTZ5 cells; Western blot, refers to: JAK2, STAT5, STAT3; concentration not given).
CCn1cc(-c2cc(Cn3ccoc3=N)cc3c2CCN([C@@H](C)c2cc(OC)ccn2)C3=O)c(C(F)(F)F)n1 has an EC50 of over 30 µM (NCI-H322; cell growth, inhibitor; 120 h).
For O=C1CN(/N=C/C=C/c2ccc([N+](=O)[O-])o2)C(=O)N1, the inhibition was 1.08% (THP-1; pyroptotic LDH release; 2 µM, 40 min, with: LPS then nigericin).
Cc1cc(C(C)(C)CC(C)(C)C)ccc1OCCOCC[N+](C)(C)Cc1ccccc1 gave an EC50 of 4.48 µM (HEK293T ATF4-FLuc reporter; ATF4 reporter gene, activator, luciferase reporter).
COc1cc(C=CC(=O)O)cc(OC)c1OC has an inhibition of 16.2% (THP-1; pyroptotic LDH release; 2 µM, 40 min, with: LPS then nigericin).
CCn1cc(-c2cc(Cn3ccnc3)cc3c2CCN([C@H](c2cc(OC)ccn2)C2CC2)C3=O)c(C(F)(F)F)n1 gave an EC50 of 3.33 µM (JHUEM7; cell growth; 120 h).
For CCOc1cc(-c2nccc3cc(OC)c(OC)cc23)cc(OCC)c1OCC, the EC50 was over 9.96 µM (HEK293T ATF4-FLuc reporter; ATF4 reporter gene, activator, luciferase reporter).
The apoptotic cells of C[C@H](CS)C(=O)N1CCC[C@H]1C(=O)O is reported as 38 % decrease (HUVEC; annexin V/PI flow cytometry; 10, 100, 1 µM, with: angiotensin II; baseline: angiotensin II alone).
The EC50 of CCN(C)C(=O)c1ccc2c(c1)NC(=O)/C2=C(/Nc1ccc(CN2CCCCC2)cc1)c1ccccc1 is reported as 4.11 µM (HEK293T ATF4-FLuc reporter; ATF4 reporter gene, activator, luciferase reporter).
With C=C1C[C@@]23CC[C@H]4[C@@](C)(CCC[C@@]4(C)C(=O)O[C@@H]4O[C@H](CO)[C@@H](O)[C@H](O)[C@H]4O)[C@@H]2CC[C@]1(O[C@@H]1O[C@H](CO)[C@@H](O)[C@H](O)[C@H]1O[C@@H]1O[C@H](CO)[C@@H](O)[C@H](O)[C@H]1O)C3 the inhibition was -27.8% (THP-1; pyroptotic LDH release; 2 µM, 40 min, with: LPS then nigericin).

Repeated from above:
With CCCCCCCCCCC(=O)O the inhibition was -1.52% (THP-1; pyroptotic LDH release; 2 µM, 40 min, with: LPS then nigericin).
O=c1c(O)c(-c2ccc(O)cc2)oc2cc(O)cc(O)c12 gave an IL-1β level of 8.8 ± 1.1 fold change (coculture, Caco-2, THP-1; ELISA; 50 ng/mL, 8 h, with: LPS, IFNγ, ATP; baseline: untreated control).
